Results pooled from the literature.
Parts stem from different laboratories: compare values within a part only.
Chain of UniProt P41143 (whole entry, looked up): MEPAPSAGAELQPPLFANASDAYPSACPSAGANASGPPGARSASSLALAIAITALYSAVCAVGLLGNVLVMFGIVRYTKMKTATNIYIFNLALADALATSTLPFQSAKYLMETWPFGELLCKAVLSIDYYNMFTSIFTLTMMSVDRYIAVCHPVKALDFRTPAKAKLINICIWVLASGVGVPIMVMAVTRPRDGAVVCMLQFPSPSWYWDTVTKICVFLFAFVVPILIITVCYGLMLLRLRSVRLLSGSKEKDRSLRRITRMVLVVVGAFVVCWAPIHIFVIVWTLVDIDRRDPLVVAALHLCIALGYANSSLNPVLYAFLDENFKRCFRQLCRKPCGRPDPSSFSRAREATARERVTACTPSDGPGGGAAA
Chain of UniProt P14616 (whole entry, looked up): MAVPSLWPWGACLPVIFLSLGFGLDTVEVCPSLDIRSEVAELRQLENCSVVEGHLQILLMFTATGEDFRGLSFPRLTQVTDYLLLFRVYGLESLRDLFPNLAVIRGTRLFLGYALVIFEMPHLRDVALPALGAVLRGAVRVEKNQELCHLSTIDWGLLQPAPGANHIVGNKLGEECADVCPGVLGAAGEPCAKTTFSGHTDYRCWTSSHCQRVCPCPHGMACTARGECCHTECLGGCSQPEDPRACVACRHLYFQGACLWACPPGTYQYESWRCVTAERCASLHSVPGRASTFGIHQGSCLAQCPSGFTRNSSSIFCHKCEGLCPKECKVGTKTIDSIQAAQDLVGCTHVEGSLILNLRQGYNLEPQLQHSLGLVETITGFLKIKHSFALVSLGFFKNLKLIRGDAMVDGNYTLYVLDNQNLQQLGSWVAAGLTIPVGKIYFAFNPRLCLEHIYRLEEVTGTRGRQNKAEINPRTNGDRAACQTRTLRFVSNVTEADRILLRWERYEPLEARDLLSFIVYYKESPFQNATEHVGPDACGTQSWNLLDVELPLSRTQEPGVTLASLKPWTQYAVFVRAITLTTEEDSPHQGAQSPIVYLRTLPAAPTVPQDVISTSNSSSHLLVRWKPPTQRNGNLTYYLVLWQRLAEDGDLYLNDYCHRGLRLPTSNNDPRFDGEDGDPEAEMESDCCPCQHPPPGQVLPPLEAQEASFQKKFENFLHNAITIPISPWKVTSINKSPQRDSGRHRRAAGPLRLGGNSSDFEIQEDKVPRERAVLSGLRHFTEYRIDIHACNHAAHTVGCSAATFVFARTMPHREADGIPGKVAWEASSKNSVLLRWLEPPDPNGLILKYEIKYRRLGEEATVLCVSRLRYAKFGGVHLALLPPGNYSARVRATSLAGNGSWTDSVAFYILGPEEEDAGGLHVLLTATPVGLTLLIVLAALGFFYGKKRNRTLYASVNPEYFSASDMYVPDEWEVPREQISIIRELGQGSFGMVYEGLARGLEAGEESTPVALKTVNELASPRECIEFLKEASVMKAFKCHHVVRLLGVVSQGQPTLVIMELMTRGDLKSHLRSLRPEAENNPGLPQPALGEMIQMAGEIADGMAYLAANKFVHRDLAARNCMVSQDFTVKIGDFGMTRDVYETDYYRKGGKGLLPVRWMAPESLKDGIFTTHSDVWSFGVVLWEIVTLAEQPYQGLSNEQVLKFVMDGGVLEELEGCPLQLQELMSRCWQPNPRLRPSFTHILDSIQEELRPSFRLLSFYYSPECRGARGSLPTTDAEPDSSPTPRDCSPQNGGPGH
Chain of UniProt P31645 (whole entry, looked up): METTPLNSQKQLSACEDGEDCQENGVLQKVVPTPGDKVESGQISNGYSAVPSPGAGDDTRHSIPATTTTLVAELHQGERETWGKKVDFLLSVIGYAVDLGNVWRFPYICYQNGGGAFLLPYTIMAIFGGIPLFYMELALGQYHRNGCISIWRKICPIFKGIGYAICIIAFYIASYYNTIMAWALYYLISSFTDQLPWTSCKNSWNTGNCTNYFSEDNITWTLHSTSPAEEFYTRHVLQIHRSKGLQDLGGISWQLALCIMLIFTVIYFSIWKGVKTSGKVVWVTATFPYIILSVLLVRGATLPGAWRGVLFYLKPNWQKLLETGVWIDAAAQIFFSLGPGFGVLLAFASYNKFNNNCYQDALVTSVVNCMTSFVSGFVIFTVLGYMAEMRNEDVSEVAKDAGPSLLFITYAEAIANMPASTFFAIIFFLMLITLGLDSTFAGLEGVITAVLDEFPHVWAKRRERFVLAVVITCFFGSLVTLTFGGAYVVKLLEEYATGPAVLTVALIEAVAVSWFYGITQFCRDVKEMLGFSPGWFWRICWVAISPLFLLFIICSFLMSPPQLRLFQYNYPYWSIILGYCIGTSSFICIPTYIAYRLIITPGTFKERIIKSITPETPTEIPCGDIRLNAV
Chain of UniProt O94806 (whole entry, looked up): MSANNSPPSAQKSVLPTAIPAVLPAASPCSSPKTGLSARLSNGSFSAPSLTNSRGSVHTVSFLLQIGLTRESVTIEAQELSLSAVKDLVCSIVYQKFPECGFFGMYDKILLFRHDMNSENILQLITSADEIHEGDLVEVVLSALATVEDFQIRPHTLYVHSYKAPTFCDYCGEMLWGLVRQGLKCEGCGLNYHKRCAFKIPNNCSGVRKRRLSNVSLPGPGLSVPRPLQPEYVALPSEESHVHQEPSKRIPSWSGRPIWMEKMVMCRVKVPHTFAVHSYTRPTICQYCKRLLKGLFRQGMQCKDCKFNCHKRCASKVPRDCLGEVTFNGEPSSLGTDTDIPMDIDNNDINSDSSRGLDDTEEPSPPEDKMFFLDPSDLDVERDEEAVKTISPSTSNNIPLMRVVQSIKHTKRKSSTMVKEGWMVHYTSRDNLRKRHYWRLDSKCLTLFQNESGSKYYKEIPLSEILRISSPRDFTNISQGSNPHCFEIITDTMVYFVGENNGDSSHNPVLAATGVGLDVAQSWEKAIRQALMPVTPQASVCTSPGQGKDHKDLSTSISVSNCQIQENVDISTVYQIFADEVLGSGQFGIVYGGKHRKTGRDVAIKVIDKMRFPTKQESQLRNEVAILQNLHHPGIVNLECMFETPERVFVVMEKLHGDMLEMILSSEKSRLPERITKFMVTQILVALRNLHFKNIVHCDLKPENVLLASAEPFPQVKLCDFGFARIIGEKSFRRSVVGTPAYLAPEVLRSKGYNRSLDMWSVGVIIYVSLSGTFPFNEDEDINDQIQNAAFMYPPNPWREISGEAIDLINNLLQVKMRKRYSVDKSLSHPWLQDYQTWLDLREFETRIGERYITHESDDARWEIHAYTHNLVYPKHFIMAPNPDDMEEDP
Chain of UniProt Q16620 (whole entry, looked up): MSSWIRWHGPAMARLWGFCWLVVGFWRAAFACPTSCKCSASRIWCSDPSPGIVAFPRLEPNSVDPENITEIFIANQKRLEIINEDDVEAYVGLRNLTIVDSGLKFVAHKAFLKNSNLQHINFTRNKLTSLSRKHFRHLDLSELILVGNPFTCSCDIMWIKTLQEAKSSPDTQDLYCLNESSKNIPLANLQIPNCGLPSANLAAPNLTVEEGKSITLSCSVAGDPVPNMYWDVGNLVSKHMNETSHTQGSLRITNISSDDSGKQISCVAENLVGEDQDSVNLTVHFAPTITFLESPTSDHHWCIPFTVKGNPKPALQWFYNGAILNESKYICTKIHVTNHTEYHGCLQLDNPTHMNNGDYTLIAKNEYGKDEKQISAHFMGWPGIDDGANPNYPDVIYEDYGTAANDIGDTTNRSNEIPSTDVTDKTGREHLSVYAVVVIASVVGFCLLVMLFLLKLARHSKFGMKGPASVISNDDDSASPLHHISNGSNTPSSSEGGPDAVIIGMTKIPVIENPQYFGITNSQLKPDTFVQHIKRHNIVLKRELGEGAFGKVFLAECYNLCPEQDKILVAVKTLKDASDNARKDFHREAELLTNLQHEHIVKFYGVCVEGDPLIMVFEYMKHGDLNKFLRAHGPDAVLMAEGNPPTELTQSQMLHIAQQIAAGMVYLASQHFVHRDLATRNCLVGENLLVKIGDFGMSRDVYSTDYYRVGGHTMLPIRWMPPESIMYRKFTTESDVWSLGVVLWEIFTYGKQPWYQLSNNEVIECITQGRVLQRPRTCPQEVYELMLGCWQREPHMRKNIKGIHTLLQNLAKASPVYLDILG
Chain of UniProt Q92630 (whole entry, looked up): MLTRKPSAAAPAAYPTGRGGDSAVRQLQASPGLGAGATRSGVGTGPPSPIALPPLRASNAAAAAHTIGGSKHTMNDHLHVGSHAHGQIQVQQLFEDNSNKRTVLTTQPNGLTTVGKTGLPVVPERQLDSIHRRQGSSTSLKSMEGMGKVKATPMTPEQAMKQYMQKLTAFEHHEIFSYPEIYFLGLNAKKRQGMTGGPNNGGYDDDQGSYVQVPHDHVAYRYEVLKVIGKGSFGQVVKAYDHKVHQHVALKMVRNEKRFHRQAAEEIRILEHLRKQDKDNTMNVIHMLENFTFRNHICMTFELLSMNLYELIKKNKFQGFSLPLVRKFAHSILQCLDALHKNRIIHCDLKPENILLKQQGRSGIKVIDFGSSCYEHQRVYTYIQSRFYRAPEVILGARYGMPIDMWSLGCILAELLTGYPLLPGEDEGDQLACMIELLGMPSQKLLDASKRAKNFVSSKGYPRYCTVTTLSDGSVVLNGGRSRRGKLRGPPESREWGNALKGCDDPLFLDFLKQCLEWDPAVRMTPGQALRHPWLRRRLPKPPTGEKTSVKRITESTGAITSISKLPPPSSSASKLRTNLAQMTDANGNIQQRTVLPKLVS

Series 1 — cell line: mouse MPNST tumor cells; method: high-content nuclear imaging; item: cell number; concentration: 10 µM; time: 12 h; notes: mean of 2 replicates; baseline: plate mean; direction: higher = more cells
For CN(C)[C@@H]1C(=O)C(C(N)=O)=C(O)[C@@]2(O)C(=O)C3=C(O)c4c(O)ccc(Cl)c4[C@@](C)(O)[C@H]3C[C@@H]12, the nuclei count was 0.487 z-score.
For COCC1(CO)C(=O)C2CCN1CC2 (stereo not drawn), the nuclei count was -1.73 z-score.
For COc1ccc2c(c1)[C@]13CCCC[C@@H]1[C@H](C2)N(C)CC3, the nuclei count was 2.86 z-score.
C[N+]1(C)[C@@H]2CC[C@H]1C[C@@H](OC(=O)C(CO)c1ccccc1)C2 (stereo partly drawn) gave a nuclei count of 1.94 z-score.
With C=CCN1C[C@H](C)N([C@H](c2ccc(C(=O)N(CC)CC)cc2)c2cccc(OC)c2)C[C@H]1C the nuclei count was 0.499 z-score.
With C1CCc2nnnn2CC1 the nuclei count was 2.77 z-score.
c1ccc(CCCCN2CCC(c3ccccc3)CC2)cc1 has a nuclei count of -1.11 z-score.
For C[C@@]12N[C@@H](Cc3ccccc31)c1ccccc12, the nuclei count was 1.88 z-score.

Series 2 — concentration: 10 µM
SMILES: CCS(=O)(=O)c1cc2cc(C[C@](O)(CC(C)(C)c3ccc(F)cc3C(N)=O)C(F)(F)F)[nH]c2cn1
For OPRM1 (Homo sapiens, UniProt P35372); ligand displacement: inhibition read 7.51%.
SLC6A4 (Homo sapiens, UniProt P31645); cell-free assay — inhibition: -14.1%.
The inhibition was -2.58% (OPRD1 (Homo sapiens, UniProt P41143); ligand displacement).
The inhibition was 34.2% (DRD5 (Homo sapiens, UniProt P21918); ligand displacement).

Series 3 — observed: enzyme activity; action: inhibitor; concentration: 0.5 µM; baseline: control
Compound: O=C1NC(=O)c2c1c1c3ccccc3n3c1c1c2c2ccccc2n1[C@H]1CC[C@@H]3O1
It gave 90.2% for remaining activity (VRK1 (Homo sapiens, UniProt Q99986)).
For PHKG2 (Homo sapiens, UniProt P15735): remaining activity read 75.6%.
INSRR (Homo sapiens, UniProt P14616) — remaining activity: 7.16%.
It gave 5.94% for remaining activity (DYRK2 (Homo sapiens, UniProt Q92630)).
The remaining activity was 121% (RAF1 (Homo sapiens, UniProt P04049)).
It gave 73.1% for remaining activity (ULK1 (Homo sapiens, UniProt O75385)).
The remaining activity was 79.7% (RIPK2 (Homo sapiens, UniProt O43353)).
PLK1 (Homo sapiens, UniProt P53350) — remaining activity: 50.2%.
NTRK2 (Homo sapiens, UniProt Q16620) — remaining activity: 6.87%.
PRKD3 (Homo sapiens, UniProt O94806) — remaining activity: -0.0451%.
ACVR1 (Homo sapiens, UniProt Q04771) — remaining activity: 85.8%.

Series 4 — observed: RNA clamping; method: fluorescence polarization; concentration: concentration not given; notes: mean of two replicates; together with: FAM-labelled poly r(AG)8 RNA
Target: Eukaryotic initiation factor 4A-I (EIF4A1, Homo sapiens, UniProt P60842)
Chain of UniProt P60842 (whole entry, looked up): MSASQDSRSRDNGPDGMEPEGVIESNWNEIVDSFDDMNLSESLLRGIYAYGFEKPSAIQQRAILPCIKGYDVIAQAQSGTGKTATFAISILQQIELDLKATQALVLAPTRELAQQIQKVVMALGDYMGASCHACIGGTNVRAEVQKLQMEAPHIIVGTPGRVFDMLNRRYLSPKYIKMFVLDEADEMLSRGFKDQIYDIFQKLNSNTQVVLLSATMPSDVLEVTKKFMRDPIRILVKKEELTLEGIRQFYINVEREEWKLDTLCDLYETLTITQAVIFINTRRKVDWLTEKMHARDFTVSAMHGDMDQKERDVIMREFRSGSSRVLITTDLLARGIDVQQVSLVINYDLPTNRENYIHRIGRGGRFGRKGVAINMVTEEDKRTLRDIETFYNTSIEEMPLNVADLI
COc1ccc([C@@]23Oc4cc(OC)cc(OC)c4[C@]2(O)c2nc(-c4ccccc4Cl)[nH]c(=O)c2[C@H]3c2ccccc2)cc1: “fluorescence polarization change” 39.7 mP.
Under “fluorescence polarization change”, COC(=O)[C@H]1[C@H](c2ccccc2)[C@]2(c3ccc(OC)cc3)Oc3cc(OC)cc(OC)c3[C@@]23OC(c2ccccc2)=N[C@@]13O is recorded as 3.4 mP.
For COC(=O)[C@@H]1[C@@H](c2ccccc2)[C@]2(c3ccc(OC)cc3)Oc3cc(OC)cc(OC)c3[C@@]23OC(c2ccc(Cl)cc2)=N[C@@]13O, “fluorescence polarization change” read 2.1 mP.
Under “fluorescence polarization change”, COC(=O)Cc1nc2c(c(=O)[nH]1)[C@@H](c1ccccc1)[C@]1(c3ccc(OC)cc3)Oc3cc(OC)cc(OC)c3[C@]21O is recorded as 35.4 mP.
COC(=O)[C@@H]1[C@@H](c2ccccc2)[C@]2(c3ccc(OC)cc3)Oc3cc(OC)cc(OC)c3[C@@]23NC(C(C)(C)C)=N[C@@]13O: “fluorescence polarization change” 63.6 mP.
COc1ccc([C@@]23Oc4cc(OC)cc(OC)c4[C@]2(O)c2nc(-c4ccc(O)cc4)[nH]c(=O)c2[C@H]3c2ccccc2)cc1 — result for “fluorescence polarization change”: 20.3 mP.
COC(=O)[C@H]1C(=O)[C@@]2(O)c3c(OC)cc(OC)cc3O[C@@]2(c2ccc(OC)cc2)[C@@H]1c1ccccc1 — result for “fluorescence polarization change”: 47.1 mP.

A few entries again (series 1):
For CN(C)[C@@H]1C(=O)C(C(N)=O)=C(O)[C@@]2(O)C(=O)C3=C(O)c4c(O)ccc(Cl)c4[C@@](C)(O)[C@H]3C[C@@H]12, the nuclei count was 0.487 z-score.
c1ccc(CCCCN2CCC(c3ccccc3)CC2)cc1 has a nuclei count of -1.11 z-score.
For C[C@@]12N[C@@H](Cc3ccccc31)c1ccccc12, the nuclei count was 1.88 z-score.
With C1CCc2nnnn2CC1 the nuclei count was 2.77 z-score.
With C=CCN1C[C@H](C)N([C@H](c2ccc(C(=O)N(CC)CC)cc2)c2cccc(OC)c2)C[C@H]1C the nuclei count was 0.499 z-score.
